Assay results of several laboratories.
Numbered parts are unrelated; each lists some results of a single study.
UniProt P07949, sequence (whole entry, looked up): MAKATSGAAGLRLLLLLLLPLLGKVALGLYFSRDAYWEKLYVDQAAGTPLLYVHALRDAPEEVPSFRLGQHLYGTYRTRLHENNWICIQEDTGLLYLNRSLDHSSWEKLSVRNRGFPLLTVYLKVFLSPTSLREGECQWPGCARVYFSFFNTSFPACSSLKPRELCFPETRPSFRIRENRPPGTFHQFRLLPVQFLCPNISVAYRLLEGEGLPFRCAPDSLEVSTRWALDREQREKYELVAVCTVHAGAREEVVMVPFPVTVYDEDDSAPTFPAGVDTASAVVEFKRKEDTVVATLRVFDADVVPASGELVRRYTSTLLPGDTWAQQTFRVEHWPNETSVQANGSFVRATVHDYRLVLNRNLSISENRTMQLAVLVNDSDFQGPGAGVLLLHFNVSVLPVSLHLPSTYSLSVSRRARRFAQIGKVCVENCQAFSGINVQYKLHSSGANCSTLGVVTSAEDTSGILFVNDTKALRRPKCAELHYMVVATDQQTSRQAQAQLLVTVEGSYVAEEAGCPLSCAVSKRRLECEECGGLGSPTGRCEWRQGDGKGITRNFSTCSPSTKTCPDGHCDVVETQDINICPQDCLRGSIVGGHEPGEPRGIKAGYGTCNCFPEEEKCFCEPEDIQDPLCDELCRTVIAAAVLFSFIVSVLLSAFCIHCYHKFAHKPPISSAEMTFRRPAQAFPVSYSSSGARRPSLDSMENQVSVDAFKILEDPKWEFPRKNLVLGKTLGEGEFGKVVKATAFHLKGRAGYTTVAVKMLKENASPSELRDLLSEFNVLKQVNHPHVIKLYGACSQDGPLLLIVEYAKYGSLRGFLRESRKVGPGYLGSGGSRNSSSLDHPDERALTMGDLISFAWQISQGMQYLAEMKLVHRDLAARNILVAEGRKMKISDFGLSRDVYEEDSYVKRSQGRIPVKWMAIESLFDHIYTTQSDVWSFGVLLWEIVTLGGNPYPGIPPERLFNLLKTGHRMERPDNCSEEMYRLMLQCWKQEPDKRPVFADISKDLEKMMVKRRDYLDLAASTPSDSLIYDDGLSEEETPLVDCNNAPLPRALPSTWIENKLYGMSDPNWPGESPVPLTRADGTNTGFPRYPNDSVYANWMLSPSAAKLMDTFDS

Study 1
Target: Interferon regulatory factor 5, full length, phosphomimetic (IRF5, Homo sapiens, UniProt Q13568-2, residues 1-514, S451D/S453D/S456D/S462D)
Technique: protein-binding microarray
Molecule type: double-stranded DNA, one strand shown
Sample: in vitro
Tested at: 940 nM top
Setting: 60-bp whole probe
Together with: salmon DNA 0.4 mg/ml
Baseline: random background probes
Reading: higher = stronger binding
Endpoint: fitted relative affinity
Constant ends, left off below: GCCTAGCAC … GTCTTGATTCGCTTGACGCTGCTG
GACGGTTTCGACTATCAGGACGTGCTA: 8.17 z-score
TTAGGTTTCGACTTTCGGCTAGTGCTA: 8.86 z-score
GACGATTTCAGACTGGAGAAGTGCTAG: -0.207 z-score
GGCGGTCTCGGTCTCGGGACGTGCTAG: 4.53 z-score
TCATCTCTACATGTGTTACTGTGCTAG: 0.517 z-score
GACGATTTTAGTTTCGAGACGTGCTAG: 6.41 z-score
GACGGTTCCGACTATCGGGACGTGCTA: 0.746 z-score
GACGATCTCAGCCTCGAGACGTGCTAG: -0.334 z-score

Study 2
Target: Eukaryotic initiation factor 4A-I (EIF4A1, Homo sapiens, UniProt P60842, residues 1-406, full length assumed)
UniProt P60842, sequence (whole entry, looked up): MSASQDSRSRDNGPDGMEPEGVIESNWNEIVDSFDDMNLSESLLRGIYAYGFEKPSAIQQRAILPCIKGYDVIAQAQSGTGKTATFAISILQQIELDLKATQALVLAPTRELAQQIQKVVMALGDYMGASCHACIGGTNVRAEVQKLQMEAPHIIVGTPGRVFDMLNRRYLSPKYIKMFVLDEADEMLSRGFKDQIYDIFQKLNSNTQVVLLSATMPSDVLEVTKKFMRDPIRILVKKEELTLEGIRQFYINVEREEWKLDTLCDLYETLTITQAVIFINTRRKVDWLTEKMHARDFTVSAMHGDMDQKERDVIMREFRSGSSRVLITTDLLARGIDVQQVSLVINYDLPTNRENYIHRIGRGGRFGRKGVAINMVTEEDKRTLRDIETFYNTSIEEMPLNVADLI
Technique: RNA Bind-n-Seq
Molecule type: RNA
Sample: in vitro
Tested at: 15 pmol
Setting: 4-mer, random 30-nt RNA, single round
Together with: DMSO vehicle, 2 mM AMP-PNP
Baseline: input library
Reading: higher = stronger binding
Endpoint: 4-mer enrichment
ACAU: 0.958 fold
UAGC: 0.653 fold
UUUU: 0.972 fold
CGAC: 1.46 fold
AUGC: 1.09 fold
ACCC: 1.84 fold
UGAG: 1.19 fold
UGGU: 1.01 fold

Study 3
Target: Histone acetyltransferase KAT6A, winged helix 1, GST fusion (KAT6A, Homo sapiens, UniProt Q92794, residues 1-85)
Technique: protein binding microarray
Molecule type: double-stranded DNA, one strand shown
Sample: in vitro
Tested at: not given
Setting: 8-mer, flanks averaged, mean of 2 arrays, mostly near background
Baseline: not given
Reading: higher = stronger binding
Endpoint: E-score
Target sequence (chain): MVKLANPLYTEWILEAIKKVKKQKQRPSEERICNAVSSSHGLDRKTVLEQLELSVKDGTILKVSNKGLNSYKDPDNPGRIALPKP
GACGCTCC: 0.28
AGCGGTCG: 0.198
AATATTGC: -0.0874
AGCCAGTG: -0.167
ATATCTCG: -0.0795
TCACATCA: -0.281
CGAGGCCA: -0.166
ACGGGCCG: 0.33

Single results of other studies
CN(C)CCCn1cc(C2=C(c3c[nH]c4ccccc34)C(=O)NC2=O)c2ccccc21
remaining activity (Proto-oncogene tyrosine-protein kinase receptor Ret (RET, Homo sapiens, UniProt P07949); enzyme activity, inhibitor; 0.5 µM; baseline: control): 93.4%

Repeated from above (study 3):
AGCCAGTG: -0.167
ATATCTCG: -0.0795
TCACATCA: -0.281
CGAGGCCA: -0.166
